Measured values from different studies.
Each line is one published result; not all experiments were run side by side. Numbers after ± are the reported error.

SMILES	target or system	test	test system	conditions	how to read	measurement	value
C[n+]1ccc(/C=N/NC(=O)c2ccc3ccc(C(=O)N/N=C/c4cc[n+](C)c5ccccc45)nc3n2)c2ccccc21	telomeric G4 DNA hybrid-2	FRET melting		1 µM, DNA 0.2 µM		ΔTm	26.3 ± 0.8 °C
C=CC(=O)Nc1cccc(Cn2ncc3cnc(Nc4cnn(CCOC)c4)nc32)c1	CAMK4 human	binding, KINOMEscan		100 nM	lower = stronger binding	percent of control	100%
CN1CCCNC(=O)c2cccc(c2)C(=O)NCCCN(C)CCCNc2cccc3c2C(=O)c2cccc(c2C3=O)NCCC1	SAS	RNA-Seq, refers to: SECISBP2 mRNA		1 µM, 6 h	relative to: untreated cells	log2 fold change	-1.19
C[n+]1cc(/C=N/NC(=O)C(=O)N/N=C/c2cc3ccccc3[n+](C)c2)cc2ccccc21	telomeric G4 DNA hybrid-2	FRET melting		1 µM, DNA 0.2 µM		ΔTm	2.6 ± 1 °C
Nc1ncc(-c2cc(-c3cnn(CC(F)(F)F)c3)ncc2F)nc1C(=O)NC1CNCC(F)C1 (stereo not drawn)	PIM1	KINOMEscan		1 µM	relative to: DMSO control	remaining binding	39%
O=C(N/N=C/c1cc[n+](CC2CC2)c2ccccc12)N/N=C/c1cc[n+](CC2CC2)c2ccccc12	telomeric G4 DNA hybrid-2	FRET melting		1 µM, DNA 0.2 µM, with: duplex DNA competitor 10 µM		ΔTm	4.4 ± 0.8 °C
CC(=O)[O-].O.[Cu+2].[O-]c1ccc(Br)cc1C=NCCN1CCOCC1		superoxide scavenging		120 µM		inhibition	33.2%
CNS(=O)(=O)Nc1nccc(Cc2c(C)c3ccc(Oc4ncccc4F)cc3oc2=O)c1F	COV362	cell viability		7 days		IC50	> 1 µM
C=CC(=O)N1[C@H](c2ccc3c(c2)OCO3)c2[nH]c3ccccc3c2C[C@@H]1C(=O)N1CCN(C)CC1	human cyclin E1 N112C-3xFLAG:CDK2	co-IP with TMT proteomics, refers to: SRP9		concentration not given, P49458	relative to: wild type DMSO	relative co-enrichment	115%
O=C(N/N=C/c1ccc(C[n+]2ccccc2)cc1)c1cccc(C(=O)N/N=C/c2ccc(C[n+]3ccccc3)cc2)n1	telomeric G4 DNA hybrid-2	FRET melting		1 µM, DNA 0.2 µM		ΔTm	11.9 ± 3 °C
Cc1ncsc1-c1ccc(C(C)NC(=O)C2CC(O)CN2C(=O)C(NC(=O)CCCCCCCCCCN2CCCC(Nc3ncc(Cl)c(Nc4ccccc4S(=O)(=O)C(C)C)n3)C2)C(C)(C)C)cc1 (stereo not drawn)	22Rv1	RNA-seq, refers to: MBD5 mRNA		concentration not given	relative to: DMSO	log2 fold change	-1.18
COC1CN([C@H]2CC[C@H]([C@@]3(C)Oc4c(Cl)cc(C(=O)NCc5c(SC)cc(C)[nH]c5=O)c(C)c4O3)CC2)C1		RNA-seq, refers to: PTX3	human, whole blood	dose not given, 24 h	relative to: pretreatment baseline	log2 fold change	1.55

Some of these lines once more:
SMILES	target or system	test	test system	conditions	how to read	measurement	value
Cc1ncsc1-c1ccc(C(C)NC(=O)C2CC(O)CN2C(=O)C(NC(=O)CCCCCCCCCCN2CCCC(Nc3ncc(Cl)c(Nc4ccccc4S(=O)(=O)C(C)C)n3)C2)C(C)(C)C)cc1 (stereo not drawn)	22Rv1	RNA-seq, refers to: MBD5 mRNA		concentration not given	relative to: DMSO	log2 fold change	-1.18
